Assay results collected from several papers.
Every numbered part comes from another study and shows a few of its results, in no order.

Series 1
Target: Histone acetyltransferase KAT6A, winged helix 1, GST fusion (KAT6A, Homo sapiens, UniProt Q92794, residues 1-85)
Method: protein binding microarray
Form: double-stranded DNA, one strand shown
Medium: in vitro
Concentration: not given
Notes: 8-mer, flanks averaged, mean of 2 arrays, mostly near background
Relative to: not given
Reading: higher = stronger binding
Construct (chain): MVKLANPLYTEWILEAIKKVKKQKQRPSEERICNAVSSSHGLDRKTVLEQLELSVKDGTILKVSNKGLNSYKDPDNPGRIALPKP
The E-score of `AACCGGGA` is reported as 0.26.
The E-score of `AGTGGTAA` is reported as -0.22.
The E-score of `AGACCGCA` is reported as 0.15.
For `GTCGGCGA`, the E-score was 0.359.
`CACCAGTG` gave an E-score of -0.0923.
With `AAATAAGA` the E-score was -0.0714.
With `AGGGCTAC` the E-score was -0.0458.
For `AACGAGTT`, the E-score was -0.219.
For `CAACCAAA`, the E-score was -0.0697.
For `TCCTAAGA`, the E-score was -0.147.
For `CTAGCTAG`, the E-score was -0.162.
The E-score of `CCCGACAA` is reported as 0.116.
With `CCTCAACC` the E-score was -0.151.
`CCAAATCC` has an E-score of -0.174.
`CTAAAGCC` gave an E-score of -0.0502.
`AGACTCAT` gave an E-score of -0.186.
For `AGAATAGG`, the E-score was -0.163.
`GCTCCATA` has an E-score of -0.146.
With `CGTTGGCC` the E-score was 0.126.

Series 2
Target: Sal-like protein 4, full length isoform B (SALL4, Homo sapiens, UniProt Q9UJQ4-2, residues 1-616)
Method: universal PBM
Form: double-stranded DNA, one strand shown
Medium: in vitro
Concentration: not given
Notes: 8-mer, flanks averaged, mean of replicates
Reading: higher = stronger binding
For `CAGCCCCA`, the E-score was -0.212.
`CAGTTGGC` has an E-score of -0.109.
For `ATTCGTTG`, the E-score was -0.083.
`CTATATGC` has an E-score of 0.286.
`ATCCACTA` gave an E-score of 0.0854.
The E-score of `AAGTTCGC` is reported as -0.262.
The E-score of `TAGACCTA` is reported as 0.119.
The E-score of `GCGCCCTA` is reported as -0.221.
`ACGTATCA` gave an E-score of 0.174.
`GATTCCCA` gave an E-score of 0.00072.
The E-score of `ACCGGAAA` is reported as 0.013.
The E-score of `GAAGTGTC` is reported as -0.0321.
For `CTCTATTC`, the E-score was -0.0019.
With `AGTCAACT` the E-score was -0.0736.
`ACCTATCC` gave an E-score of -0.0109.
`GGATATCA` gave an E-score of 0.132.
`ATTGGGTC` has an E-score of -0.0956.
With `AAATCAAC` the E-score was 0.111.
`AAGACTGC` has an E-score of -0.162.
`CAAACGGG` has an E-score of -0.192.
The E-score of `ACGCTATG` is reported as 0.146.
For `AAGTCATC`, the E-score was 0.0796.
For `CCACGATC`, the E-score was 0.126.
The E-score of `CACCTTTA` is reported as 0.074.
For `GCGAAAAA`, the E-score was 0.164.

Series 3
Target: UBE2Z UBC core domain (UniProt Q9H832)
Sequence of UniProt Q9H832 (whole entry, looked up): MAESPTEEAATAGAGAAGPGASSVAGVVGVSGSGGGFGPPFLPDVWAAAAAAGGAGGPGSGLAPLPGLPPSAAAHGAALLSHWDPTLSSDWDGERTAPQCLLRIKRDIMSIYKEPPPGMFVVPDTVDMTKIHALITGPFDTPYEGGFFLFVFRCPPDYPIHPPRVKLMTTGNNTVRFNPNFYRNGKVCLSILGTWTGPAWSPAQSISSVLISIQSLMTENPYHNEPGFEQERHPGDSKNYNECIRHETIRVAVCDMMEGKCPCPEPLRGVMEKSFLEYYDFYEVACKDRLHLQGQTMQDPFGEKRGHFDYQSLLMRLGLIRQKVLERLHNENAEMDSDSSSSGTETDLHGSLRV
Method: yeast two-hybrid
Medium: yeast
Notes: mostly zero background
Relative to: not given
Reading: higher = stronger interaction
B1: SHPRH RING domain (UniProt Q149N8); chain KTSGGVNPEPCPICARQLGKQWAVLTCGHCFCNECISIIIEQYSVGSHRSSIKCAICRQTTSHKEISY
B2: RMND5B RING domain (UniProt Q96G75); chain MKCWYHSVFACPILRQQTSDSNPPIKLICGHVISRDALNKLINGGKLKCPYCPMEQNPADGK
B3: TRIM74 RING domain (UniProt Q86UV6); chain SLLELEDWLQCPICLEVFKESLMLQCGHSYCKGCLVSLSYHLDTKVRCPMCWQVVDGSSSLP
B4: TRIM32 RING domain (UniProt Q13049); chain NLDALREVLECPICMESFTEEQLRPKLLHCGHTICRQCLEKLLASSINGVRCPFCSKITRITSLTQ
B5: RNF130 RING domain (UniProt Q86XS8); chain DKETDPDFDHCAVCIESYKQNDVVRILPCKHVFHKSCVDPWLSEHCTCPMCKLNILKALGIV
For `B1 (SHPRH RING domain)`, “lacZ reporter activity” read 0.
Under “lacZ reporter activity”, `GSEEEEIPFRCFICRQAFQNPVVTKCRHYFCESCALEHFRATPRCYICDQPTGGIFNPA (RNF113B RING domain (UniProt Q8IZP6))` is recorded as 7100.
`EDVLSKDAGECAICLEELQQGDTIARLPCLCIYHKGCIDEWFEVNRSCPEHPSD (ZNRF2 RING domain (UniProt Q8NHG8))`: “lacZ reporter activity” 0.
`B2 (RMND5B RING domain)` — result for “lacZ reporter activity”: 0.
`B3 (TRIM74 RING domain)` — result for “lacZ reporter activity”: 0.
`FLSKVEETFQCICCQELVFRPITTVCQHNVCKDCLDRSFRAQVFSCPACRYDLGRSYAMQ (UHRF1 RING domain (UniProt Q96T88))` — result for “lacZ reporter activity”: 0.
For `B4 (TRIM32 RING domain)`, “lacZ reporter activity” read 0.
`PLRRLQEEKLCKICMDRHIAVVFIPCGHLVTCKQCAEAVDRCPMCSAVIDFKQRVF (BIRC8 RING domain (UniProt Q96P09))` — result for “lacZ reporter activity”: 0.
`B5 (RNF130 RING domain)` — result for “lacZ reporter activity”: 14600.

Series 4
Target: Interferon regulatory factor 5, full length, phosphomimetic (IRF5, Homo sapiens, UniProt Q13568-2, residues 1-514, K96S/S451D/S453D/S456D/S462D)
Method: protein-binding microarray
Form: double-stranded DNA, one strand shown
Medium: in vitro
Concentration: 250 nM
Notes: 60-bp whole probe
Added: salmon DNA 0.4 mg/ml
Relative to: random background probes
Reading: higher = stronger binding
Constant ends, left off below: GCCTAGCAC … GTCTTGATTCGCTTGACGCTGCTG
`TTGGGTATCGGACTGGGTTAGTGCTAG` has a log fluorescence of 1.19 z-score.
`GACGGTCTGCTTCTCCTGACGTGCTAG` gave a log fluorescence of -0.124 z-score.
`GACGGTATCTGGACTGGGGACGTGCTA` has a log fluorescence of -0.0346 z-score.
`ATTTTTTTCTAATTGAAATGGTGCTAG` gave a log fluorescence of 1.13 z-score.
`TTAGGTCTCCTTCTCCTTTCGTGCTAG` gave a log fluorescence of 0.749 z-score.
`ATAGAACTGAGTATCGATTAGTGCTAG` has a log fluorescence of 7.09 z-score.
`TCAATCCTCTCACCTCAGACTGTGCTA` has a log fluorescence of 0.00334 z-score.
The log fluorescence of `GACGGTATCGACTAGCGGGACGTGCTA` is reported as 2.72 z-score.
The log fluorescence of `GACGATATGGGGTATCGAGACGTGCTA` is reported as 0.587 z-score.
For `TTAGGTATCGACACTCGGTTAGTGCTA`, the log fluorescence was 2.35 z-score.
`TTAGGTATCGGGTAACGGTTAGTGCTA` has a log fluorescence of 4.44 z-score.
With `ATTGCTTTCTCTTTCACTACGTGCTAG` the log fluorescence was 7.53 z-score.
For `TTAGGTTTACTTCTCCTTTAGTGCTAG`, the log fluorescence was 0.357 z-score.
`TCATCTTGCAGTATGGAACTGTGCTAG` has a log fluorescence of 0.0692 z-score.
`TTAGGTATCGGGTACCGGTTAGTGCTA` has a log fluorescence of 4.01 z-score.
The log fluorescence of `TTAGGACTTCTTCTCCTTTAGTGCTAG` is reported as 0.059 z-score.
`GTAGGACTGGACACTGGGTTAGTGCTA` has a log fluorescence of -0.958 z-score.
`GACGGTATCCTTCTCTTGACGTGCTAG` gave a log fluorescence of 0.126 z-score.
With `GTAGGACTGCTTCTCCTTTAGTGCTAG` the log fluorescence was -0.354 z-score.

Series 5
Target: Hepatocyte nuclear factor 3-alpha (Foxa1, Mus musculus, UniProt P35582, residues 1-468, full length assumed)
Method: EMSA with sequencing
Form: double-stranded DNA, one strand shown
Medium: in vitro
Concentration: 10 and 20 nM
Notes: whole designed probe, mean of two concentrations, ends assumed
Relative to: negative control set to 0
Reading: higher = stronger binding
Constant ends, left off below: GTGAGCGGTGCCCATTGATGGGGAAC … TTTCACTGGGATCGTGGGGAC
Construct (chain): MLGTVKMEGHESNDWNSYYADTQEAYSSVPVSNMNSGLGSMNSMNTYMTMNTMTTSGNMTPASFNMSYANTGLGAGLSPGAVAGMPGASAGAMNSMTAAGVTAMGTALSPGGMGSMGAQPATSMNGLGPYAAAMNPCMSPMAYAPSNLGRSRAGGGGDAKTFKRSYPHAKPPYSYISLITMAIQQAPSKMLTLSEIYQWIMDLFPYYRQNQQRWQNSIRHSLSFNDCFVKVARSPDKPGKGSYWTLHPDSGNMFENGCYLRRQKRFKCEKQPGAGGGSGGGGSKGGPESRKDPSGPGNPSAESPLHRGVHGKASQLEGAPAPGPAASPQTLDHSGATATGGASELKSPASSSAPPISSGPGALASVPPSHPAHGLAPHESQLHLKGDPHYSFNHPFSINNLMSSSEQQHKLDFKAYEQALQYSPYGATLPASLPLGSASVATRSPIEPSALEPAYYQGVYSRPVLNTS
For `CCCTCATCCTGGGTGTCGGGGTGGGAGGTGTTCTCATCATGAATGGGAGGCGTACCCAGATCCAGCTCTGGTGACTCACCACCAAACCAGAGTGTAAACAAATGGCTGTGTGTCACACCATAATCGACATAGCAAGATATGATACATGCCAGGAGAGAAAAAGAAAGTGCTGATGGAAAAATAATCTCATTAG`, “normalised bound fraction” read 0.365 ratio.
`GAAATACTTCATATAAGCCAGAAAAAGATAATTATTTTAATGAATACAATTGAAAAGCAGTTCAATTAATTATTATTTGGAGATGATATCTTTGTTTACTTAGAAAGACAGCAAAAGCAACTGAAAGGTGATTTTAGAAATCTATTCAGGTGGGTAGGGAAAATTCTCAGATGACCCTCAGGTTCCCACTTCA` — result for “normalised bound fraction”: 0.42 ratio.
Under “normalised bound fraction”, `ATCTTCCCCCTCTTCCTTGCCCCACCAGCTCACCTTCCCGGGTTATTTGCAGATAGGAAAATAAATAAAGCCGGCATTCGTTAACGCAGTTCTGGCGCAAACTGCTGTTTGCTCTGCATCTAACATGGTCCTTACGCGAGGCGTGGCTCCGGGAGAGCAAAGCACCGTGTCAGGCGCATGATCCGGGCTCGCC` is recorded as 0.357 ratio.
Under “normalised bound fraction”, `TTTTGCCTGTGATGTTAAAACTGATTAATGTGAAGAAAATGCAATGCTTTTATCCATCATGAGCTTTGAGGGGGGAAAAAAGTTTTAGAGAAAAGTAAACAAGTAAAAACAAAGGATTAAATAGGAAAATGAAGAGTGCTGGCCTAGCATTTAGGGCATTTGATATCCTGTGGACTTCTAATTAATTAAGCAG` is recorded as 0.445 ratio.
`ATCTTCCCCCTCTTCCTTGCCCCACCAGCTCACCTTCCCGGGTTATTTGCAGATAGGAAAATAAATAAAGCCGGCATTCGTTAACCCTCTTCTGGCGCAAACTGCTGTTTGCTCTGGATGAATCATGGTCCTTTGGCGACGCCAGGCTCCGGGAGAGCAAAGCACCGTGTCAGGGCCATGATCCGGGCTCGCC` — result for “normalised bound fraction”: 0.338 ratio.

For quick reference, copied from above (series 1):
For `AACGAGTT`, the E-score was -0.219.
For `CAACCAAA`, the E-score was -0.0697.
For `TCCTAAGA`, the E-score was -0.147.
For `CTAGCTAG`, the E-score was -0.162.
The E-score of `CCCGACAA` is reported as 0.116.
